Values quoted from earlier work as cited in several papers.
UniProt Q8TCC7, sequence (whole entry, looked up): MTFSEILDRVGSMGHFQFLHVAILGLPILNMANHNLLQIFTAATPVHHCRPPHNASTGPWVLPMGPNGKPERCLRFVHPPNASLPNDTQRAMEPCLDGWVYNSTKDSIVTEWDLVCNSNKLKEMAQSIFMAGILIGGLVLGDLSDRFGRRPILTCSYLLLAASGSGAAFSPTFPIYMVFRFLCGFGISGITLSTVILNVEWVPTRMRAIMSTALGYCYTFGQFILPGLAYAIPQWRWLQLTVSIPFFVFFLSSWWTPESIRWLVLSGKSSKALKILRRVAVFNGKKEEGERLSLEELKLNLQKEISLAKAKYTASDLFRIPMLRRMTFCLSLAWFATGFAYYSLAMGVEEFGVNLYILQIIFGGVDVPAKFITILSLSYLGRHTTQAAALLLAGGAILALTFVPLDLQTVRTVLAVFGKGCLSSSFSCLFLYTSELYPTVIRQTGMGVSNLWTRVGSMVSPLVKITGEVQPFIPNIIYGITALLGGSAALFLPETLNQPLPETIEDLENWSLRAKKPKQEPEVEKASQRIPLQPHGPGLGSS

Compound = COc1cc([C@@H]2c3cc4c(cc3[C@@H](O[C@@H]3O[C@@H]5CO[C@@H](C)O[C@H]5[C@H](O)[C@H]3O)[C@H]3COC(=O)[C@H]23)OCO4)cc(OC)c1O; target = MRP2; assay = inhibitor; quantity = IC50; value = 48 µM
Compound = FC(F)(F)C(F)(F)C(F)(F)C(F)(F)CCI; target = CYP1A2; assay = inhibitor; conditions = Tox21 screening; quantity = IC50; value = inactive
Compound = CN(Cc1cnc2nc(N)nc(N)c2n1)c1ccc(C(=O)N[C@@H](CCC(=O)O)C(=O)O)cc1; target = SLC22A8 (Homo sapiens, UniProt Q8TCC7); test system = human; conditions = 200 mg/m2, without probenecid; quantity = renal clearance; value = 6.2 L/h
Compound = CN/C(=N/CCSCc1nc[nH]c1C)NC#N; target = OCT1; quantity = Ki; value = 104 µM
Compound = Cc1ccc(NC(=O)[C@H]2CCCN(C(=O)c3c(C)cccc3F)[C@H]2c2ccc(NC3CCCC3)cc2)cc1C(F)(F)F; target = CYP3A4; assay = inhibitor; test system = human, fasted; conditions = oral, 30 mg twice daily, 11 days, together with: midazolam; how to read = relative to: midazolam alone; quantity = midazolam AUC increase; value = 1.8 fold
Compound = Cc1c(O)cccc1C(=O)N[C@@H](CSc1ccccc1)[C@H](O)CN1C[C@H]2CCCC[C@H]2C[C@H]1C(=O)NC(C)(C)C; target = hepatic CYP3A human; conditions = concentration not given; quantity = inhibition; value = 50%
Compound = O=S(=O)([O-])C(F)(F)C(F)(F)C(F)(F)C(F)(F)C(F)(F)C(F)(F)C(F)(F)C(F)(F)F.[K+]; target = CYP3A4; assay = inhibitor; conditions = Tox21 screening; quantity = IC50; value = inactive
Compound = C=C[C@@H]1C[C@]1(NC(=O)[C@@H]1C[C@@H]2CN1C(=O)[C@H](C(C)(C)C)NC(=O)O[C@@H]1C[C@H]1CCCCCc1nc3ccc(OC)cc3nc1O2)C(=O)NS(=O)(=O)C1CC1; target = CYP2D6; test system = human liver microsomes; quantity = IC50; value = > 100 µM
Compound = FC(F)OC(F)(F)C(F)Cl (stereo not shown); target = CYP2C9; assay = inhibitor; conditions = Tox21 screening; quantity = IC50; value = inactive
Compound = C=C(C)[C@@H]1CCC(C)=C[C@H]1c1c(O)cc(CCCCC)cc1O; target = CYP2C9, human; assay = enzyme activity, inhibitor; test system = human liver microsomes; conditions = 10 µM; quantity = inhibition; value = inhibited
